{"data": "Results collected from several papers", "Histone acetyltransferase RTT109 with Vps75": "Histone acetyltransferase RTT109, with Vps75 (Saccharomyces cerevisiae, UniProt Q07794)", "note": "Each line is one published result; not all experiments were run side by side. Several values in a cell are separate wells, animals, samples, runs or records. Numbers after ± are the reported error."}
{"Structure (SMILES)": "CCn1c(-c2nc3cc(C(=O)N4CCC[C@@H](N)C4)cc(OC)c3n2C)cc2cccnc21", "target": "ADRA2C (Homo sapiens, UniProt P18825)", "assay": "agonist, TR-FRET", "endpoint": "EC50", "result": "> 31600 nM"}
{"Structure (SMILES)": "COc1cc(Nc2ncc3c(n2)-c2ccc(Cl)cc2C(c2c(F)cccc2OC)=NC3)ccc1C(=O)NCCOCCOCCNC(=O)COc1cccc2c1C(=O)N(C1CCC(=O)NC1=O)C2=O (stereo not drawn)", "target": "ACAD10 (Homo sapiens, UniProt Q6JQN1)", "assay": "binding, kinobead competition", "system": "MV4-11 cell lysate", "endpoint": "EC50", "result": "278 nM"}
{"Structure (SMILES)": "O=C1Nc2c(ccc(Cl)c2Cl)C1=NO", "target": "KCNN4/CALM1 (Homo sapiens, UniProt O15554+P0DP23, L185A/S181A)", "assay": "ion current, activator, whole-cell patch clamp", "endpoint": "EC50", "result": "1100 nM"}
{"Structure (SMILES)": "COc1ccc(S(=O)(=O)n2nc(NCc3ccc(Cl)cc3)nc2N)cc1", "target": "Lysophospholipase-like protein 1 (Mus musculus, UniProt Q3UFF7)", "assay": "enzyme activity, activator, gel-based ABPP", "endpoint": "EC50", "result": "> 20000 nM"}
{"Structure (SMILES)": "CCC(C)(C)C(=O)C(=O)N1CCCC[C@H]1C(=O)N[C@H](CCc1ccc(OC)cc1)C(=O)N1[C@@H]2CC[C@H]1C[C@H](Nc1nc(NCCc3sc(N)nc3C)nc(N3CCn4ncnc4C3)n1)C2", "target": "FKBP1A (Homo sapiens, UniProt P62942)", "assay": "binding, TR-FRET", "endpoint": "EC50", "result": "30000 nM"}
{"Structure (SMILES)": "Fc1ccc(-c2nsc(Nc3ccccc3)n2)cc1", "target": "Histone acetyltransferase RTT109 with Vps75", "assay": "enzyme activity, inhibitor, HTS, CPM-based, dose response", "endpoint": "IC50", "result": "> 125000 nM"}
{"Structure (SMILES)": "CC[C@H](C)[C@H](NC(=O)[C@H](Cc1ccc(OP(=O)(O)O)cc1)NC(=O)[C@H](CC(N)=O)NC(=O)[C@H](CC(C)C)NC(=O)[C@@H](N)CO)C(=O)N[C@@H](CC(=O)O)C(=O)N[C@@H](CC(C)C)C(=O)N[C@@H](CC(=O)O)C(=O)N[C@@H](CC(C)C)C(=O)N[C@H](C(=O)N[C@@H](CCCCN)C(=O)O)C(C)C", "target": "PTPN11 (Homo sapiens, UniProt Q06124, R4D/S502P)", "assay": "enzyme activity, activator", "conditions": "pH 7.0, 2% DMSO, with: DiFMUP 100 µM, phosphopeptide", "endpoint": "EC50", "result": "300 ± 100 nM"}
{"Structure (SMILES)": "COc1ccc(-c2noc(Nc3ccc(Cl)cc3)n2)cc1", "target": "Histone acetyltransferase RTT109 with Vps75", "assay": "enzyme activity, inhibitor, HTS, CPM-based, dose response", "endpoint": "IC50", "result": "> 125000 nM"}
{"Structure (SMILES)": "CC(C)(C)C=C(C#N)C(=O)N1CCC[C@@H](n2nc(-c3ccc(Oc4ccccc4)cc3)c3c(N)ncnc32)C1", "target": "BTK (Homo sapiens, UniProt Q06187)", "assay": "target occupancy, PP-BODIPY competition labelling", "system": "Ramos", "conditions": "1 h", "endpoint": "EC50", "result": "20.2 ± 5 nM"}
{"Structure (SMILES)": "O=C(O)c1cc(Cl)ccc1S(=O)(=O)NCCCCN1C(=O)c2cccc3cccc(c23)C1=O", "target": "Lysophosphatidic acid receptor 2 (Mus musculus, UniProt Q9JL06)", "assay": "agonist, TGFα shedding", "system": "transfected HEK293 cells", "endpoint": "EC50", "result": "~25 nM and 25 nM"}
{"Structure (SMILES)": "Nc1ncnc2c1ncn2[C@@H]1O[C@H](COP(=O)(O)OP(=O)(O)OP(=O)(O)O)[C@@H](O)[C@H]1O", "target": "P2X purinoceptor 1 (P2RX1, Homo sapiens, UniProt P51575, K136E/K138D/K140L/R139M)", "assay": "ion current, agonist, two-electrode voltage clamp", "conditions": "4", "endpoint": "EC50", "result": "2680 nM"}
{"Structure (SMILES)": "Cc1nn(-c2nc3c(F)cc(F)cc3s2)c(O)c1C(c1ccccc1C(=O)O)c1c(C)nn(-c2nc3c(F)cc(F)cc3s2)c1O", "target": "Cyclic GMP-AMP synthase, catalytic domain; with DNA (CGAS, Homo sapiens, UniProt Q8N884)", "assay": "cGAS phase separation, inhibitor", "endpoint": "EC50", "result": "1010 nM and 1460 nM"}
{"Structure (SMILES)": "O=C(Nc1ccc([N+](=O)[O-])cc1Cl)c1cc(Cl)ccc1O", "target": "Anoctamin-1 (Ano1, Mus musculus, UniProt Q8BHY3, F601A)", "assay": "chloride current, whole-cell patch clamp", "system": "HEK-293T TMEM16F knockout", "endpoint": "EC50", "result": "7190 ± 660 nM"}
{"Structure (SMILES)": "CCCCC[C@H](O)/C=C/[C@H]1[C@H](O)CC(=O)[C@@H]1C/C=C\\CCCC(=O)O", "target": "PTGER1 (Homo sapiens, UniProt P34995, L125A)", "assay": "IP1 accumulation, agonist", "system": "AD293", "conditions": "EP1 L125A mutant", "endpoint": "EC50", "result": "53.6 nM"}
{"Structure (SMILES)": "C[C@H](CCC(C)(C)O)[C@H]1CC[C@H]2[C@@H]3CC=C4C[C@@](C)(O)CC[C@]4(C)[C@H]3CC[C@]12C", "target": "Glutamate NMDA receptor; GRIN1/GRIN2A (Homo sapiens, UniProt Q05586+Q12879)", "assay": "ion current, positive modulator, automated patch clamp", "system": "HEK293 (stable line)", "conditions": "with: glutamate 0.8 µM and glycine", "endpoint": "EC50", "result": "124 nM"}
{"note": "For quick reference, copied from above:"}
{"Structure (SMILES)": "Nc1ncnc2c1ncn2[C@@H]1O[C@H](COP(=O)(O)OP(=O)(O)OP(=O)(O)O)[C@@H](O)[C@H]1O", "target": "P2X purinoceptor 1 (P2RX1, Homo sapiens, UniProt P51575, K136E/K138D/K140L/R139M)", "assay": "ion current, agonist, two-electrode voltage clamp", "conditions": "4", "endpoint": "EC50", "result": "2680 nM"}
